Published values of several laboratories.
Each line is one published result; not all experiments were run side by side. ± gives the spread as reported. In brackets after ≈: the same amount, converted by molar mass.

CCC[C@H](C(=O)c1ccccc1)N1CCCC1
ED50 (heart rate, telemetry; male Sprague-Dawley rat; subcutaneous, 3 h session mean): 9.85 mg/kg

CC(=O)NNC(=O)c1ccncc1
fraction unbound (rabbit caseum; 5 µM, 4 h, 37 °C): > 99.9%

CN[C@@H](C)Cc1ccccc1
ED50 (seizure incidence; C57Bl/6J mice, both sexes; intraperitoneal, 2 h, dose as base): 78 mg/kg

CC(C)CC(CN)CC(=O)O (stereo not shown)
performance time (neuromuscular coordination; Wistar rat male; oral, 10 mg/kg, 3 h): 125 s

O=[N+]([O-])c1cn2c(n1)OC[C@@H](OCc1ccc(OC(F)(F)F)cc1)C2
fraction unbound (THP-1 caseum surrogate; 5 µM, 4 h, 37 °C): 0.036 ± 0.002

CNC(C)Cc1ccc2c(c1)OCO2 (stereo not shown)
LD50 (C57BL/6J mouse both sexes; intraperitoneal, 2 h, as free base): 101 mg/kg

CCCC(C(=O)c1ccc(O)c(O)c1)N1CCCC1 (stereo not shown)
stability (human plasma; 0.75 µg/L, 24 h, Low QC, room temperature; baseline: freshly fortified plasma): 1 % difference

CC(=O)Nc1ccc2oc(-c3ccnc(C(=O)N4CCN([C@H](c5ccccc5)c5nnn(C)n5)CC4)c3)nc2c1
Cmax (mouse, plasma; oral, 10 mg/kg): 2100 nM

C[C@H]1CNCCc2ccc(Cl)cc21
plasma concentration (male Sprague-Dawley rat, plasma; subcutaneous, 3 mg/kg, 0 h, given alone): 0 ng/mL

COc1ccsc1CNCC[C@@]1(c2ccccn2)CCOC2(CCCC2)C1
AUC(0-t) (healthy human, normal renal function, plasma; intravenous, 1 mg single dose, arithmetic mean): 18 ng·h/mL

C[C@]1(COc2ccc(N3CCC(Oc4ccc(OC(F)(F)F)cc4)CC3)cc2)Cn2cc([N+](=O)[O-])nc2O1
fraction unbound (THP-1 caseum surrogate; 5 µM, 4 h, 37 °C): 0.0002 ± 2e-05

CNC(C)C(=O)c1ccc(C)cc1 (stereo not shown)
ED50 (seizure incidence; C57Bl/6J mice, both sexes; intraperitoneal, 2 h, dose as base): 103 mg/kg

C[C@H]1N=C(c2ccccc2F)c2cc(Br)ccc2NC1=O
solubility (shake flask; PBS; 24 h, pH 7.4): 35.7 µM (≈ 12.4 µg/mL)

CN1CC[C@@]23CCCC[C@@H]2[C@@H]1Cc1ccc(O)cc13
MRT(0-inf) (Wistar rat, both sexes, plasma; oral, 5 mg/kg DEM, DEM 2 h after pretreatment, with: QN 2.5 mg/kg single pretreatment): 5.41 ± 1.07 h

CC(=O)NC[C@H]1CN(c2ccc(-c3ccc(CNCc4cnn[nH]4)cc3)c(F)c2)C(=O)O1
fraction unbound (THP-1 caseum surrogate; 5 µM, 4 h, 37 °C): 0.076 ± 0.019

CNC(C)Cc1ccc2c(c1)OCO2 (racemic)
diastolic pressure change (human; oral, 0.75 mg/kg, unit not given; baseline: pre-dose baseline): 6.7

Cc1ncc(OC[C@@]2(c3cccc(F)c3)C[C@H]2C(=O)Nc2ccc(F)cn2)c(C)n1
treatment-related adverse events (healthy human; 10 mg, with: itraconazole): 6.7%

Oc1ccc2c3c1O[C@H]1c4[nH]c5ccccc5c4C[C@@]4(O)[C@@H](C2)N(CC2CC2)CC[C@]314
log intrinsic permeability (rat; no efflux inhibition): -3.72

C=C1C[C@@H]2[C@H](CC[C@]3(C)C(=O)CC[C@@H]23)[C@@]2(C)C=CC(=O)C=C12
median plasma concentration (LC-MS/MS; postmenopausal breast cancer women, plasma; oral, 25 mg/day, 2 h, AST and ALT up to 40): 7.5 ng/mL

C[C@@H]1CC[C@@](N)(c2ccccc2Cl)C(=O)[C@@H]1O
dose-normalized Cmax (male CD-1 mice, plasma; intraperitoneal, 5 mg/kg): 565 ± 30.2 ng/mL per mg/kg

CN(C)C[C@H]1CCCC[C@]1(O)c1cccc(O)c1
drug liking versus placebo (visual analog scale; healthy non-drug abusers; oral, 20 mg, unit not given; baseline: placebo): -2

Oc1ccc2c(c1)[C@@]13CCCC[C@@]1(O)[C@@H](C2)N(CC1CCC1)CC3
clearance (Beagle dog, both sexes; intravenous infusion, 0.2 mg/kg loading then 0.2 mg/kg/h, 8 h): 77.3 mL/min/kg

CCCCCCCCCCC(=O)O[C@H]1CC[C@H]2[C@@H]3CCC4=CC(=O)CC[C@]4(C)[C@H]3CC[C@]12C
testosterone change (human blood; 300 ng/mL, 60 min, 4 °C, NaF 5 mg/mL, K2 oxalate 4 mg/mL; baseline: no compound added): 14.3%

N[C@]1(c2ccccc2Cl)CC[C@@H](O)CC1=O
dose-normalized Cmax (female CD-1 mice, plasma; intraperitoneal, 5 mg/kg): 405 ± 10.6 ng/mL per mg/kg

COc1ccc2c(c1)[C@]13CCCC[C@@H]1[C@H](C2)N(C)CC3
AUC(0-inf) (Wistar rat, both sexes, plasma; oral, 5 mg/kg, 2 h after pretreatment, with: single TCE 100 mg/kg): 231 ± 62.4 ng·h/mL

CO[C@H]1/C=C/O[C@@]2(C)Oc3c(C)c(O)c4c(O)c(c(/C=N/N5CCN(C6CCCC6)CC5)c(O)c4c3C2=O)NC(=O)/C(C)=C\C=C\[C@H](C)[C@H](O)[C@@H](C)[C@@H](O)[C@@H](C)[C@H](OC(C)=O)[C@@H]1C
fraction unbound (THP-1 caseum surrogate; 5 µM, 4 h, 37 °C): 0.011 ± 0.001

N[C@]1(c2ccccc2Cl)C[C@H](O)CCC1=O
dose-normalized Cmax (female CD-1 mice, plasma; intraperitoneal, 5 mg/kg): 133 ± 8.9 ng/mL per mg/kg

Cc1ncc2n1-c1ccc(Cl)cc1C(c1ccccc1F)=NC2
terminal half-life (human CYP3A5*3/*7, serum; with: ketoconazole 400 mg): 19.3 h

N[C@@]1(c2ccccc2Cl)CCC[C@@H](O)C1=O
dose-normalized Cmax (female CD-1 mice, plasma; intraperitoneal, 5 mg/kg): 401 ± 18.3 ng/mL per mg/kg

Cc1ncc2n1-c1ccc(Cl)cc1C(c1ccccc1F)=NC2
AUC(0-t) (healthy human volunteers, plasma; oral, 7.5 mg single dose, arithmetic mean, alone): 101 ng·h/mL

CCN(C(C)=O)c1cccc(-c2ccnc3c(C#N)cnn23)c1
CLint (cynomolgus monkey male, hepatic S9; 1 µM, pH 7.4, with: without NADPH): 12.8 ± 1.34 mL/min/kg

CCCC(C(=O)c1ccc2c(c1)OCO2)N1CCCC1 (stereo not shown)
stability (human plasma; 750 µg/L, 24 h, High QC, room temperature; baseline: freshly fortified plasma): 5.2 % difference

C[C@]12CC[C@H]3[C@@H](CCC4=CC(=O)CC[C@@]43C)[C@@H]1CC[C@@H]2O
cumulative permeation (excised human skin, female; 6 nmol/cm^2, 6 h, 32 °C, 100% ethanol vehicle): 0.33 ± 0.13 nmol/cm²

CN(C)CCc1c[nH]c2ccccc12
blood clearance (healthy human; intravenous infusion, 21.5 mg, from plasma clearance): 18200 mL/min

Some of these lines once more:
CCCC(C(=O)c1ccc(O)c(O)c1)N1CCCC1 (stereo not shown)
stability (human plasma; 0.75 µg/L, 24 h, Low QC, room temperature; baseline: freshly fortified plasma): 1 % difference

CC(=O)Nc1ccc2oc(-c3ccnc(C(=O)N4CCN([C@H](c5ccccc5)c5nnn(C)n5)CC4)c3)nc2c1
Cmax (mouse, plasma; oral, 10 mg/kg): 2100 nM

C[C@H]1CNCCc2ccc(Cl)cc21
plasma concentration (male Sprague-Dawley rat, plasma; subcutaneous, 3 mg/kg, 0 h, given alone): 0 ng/mL

COc1ccsc1CNCC[C@@]1(c2ccccn2)CCOC2(CCCC2)C1
AUC(0-t) (healthy human, normal renal function, plasma; intravenous, 1 mg single dose, arithmetic mean): 18 ng·h/mL

C[C@]1(COc2ccc(N3CCC(Oc4ccc(OC(F)(F)F)cc4)CC3)cc2)Cn2cc([N+](=O)[O-])nc2O1
fraction unbound (THP-1 caseum surrogate; 5 µM, 4 h, 37 °C): 0.0002 ± 2e-05
